Experimental data of several laboratories.
Parts stem from different laboratories: compare values within a part only.

Set 1 — method: RNA Bind-n-Seq; molecule type: RNA; sample: in vitro; tested at: 365 nM; reference: no-protein control; direction: higher = stronger binding
Target: RNA binding protein fox-1 homolog 2, RRM domain, GST-SBP tag (RBFOX2, Homo sapiens, UniProt O43251-10, residues 100-194)
Notes: natural RNA segment, single round, ends assumed
Constant ends, left off below: GGGAGUUCUACAGUCCGACGAUC … UGGAAUUCUCGGGUGCCAA
Target sequence (chain): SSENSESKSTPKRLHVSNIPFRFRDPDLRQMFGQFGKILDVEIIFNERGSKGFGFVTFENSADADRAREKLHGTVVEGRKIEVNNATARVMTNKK
Sequence | RBNS enrichment (R)
CAUGAUUGAUGGAUGUUAAAGUCUAGCCUGAUGAGAGGGGAAGUGGUGGGGGAGACAUAGCCCCACCAUGAGGACAUACAACUGGGAAAUACUGAAACUUGCUGCCUAUU | 0.76
CCUCCUGGGCACCCCGUGUGCUGUGAUCUCCUGGGCUUUCAGGCUUGACAUGCUGGUCUGGGGAGAGACAGGGCCUCUGCUGCCCUGUUCUUCACCCUCACAGUGAUACC | 0.297
GACACCCAUACCUGUAUAUACAUGCUCGAGAAAGCUGUAAUGUGAAAAUCAUGUUCUCUAUUUAUGACUCUUCCUAGGGCAAUGUGUCUGGACAGAUUGUAAGAGUAAGU | 0.276
UGUUUUGUUUUAAGGUAACUACUGAAAUAAGUCUGGCUGUUUUUAUAUGCCAGAUACAGAGAAUUUUUAGCGGUUAUUUUUGUAAUUUUAGUAACUUGGAAAAGACCAAA | 0.602
UUCCAUGGGGAGGAUGCUGAGUGAGCAGUUUCCUACCCCGUGGAUCUAGCAAGCCAUGGAGACAGGUAGCAUUUGUAAGAUGCUGCACAGGAGCAGCAUUAUCCCCAAAG | 1.74
UUUUUUAAAUAAGGGAUAACAUAUUCUUUAUAGAAUAGUGCUUGUUCUGGAAGAGAUUCAGGUGAAAAGUUGGCGUGGCAUGUUUGAGGACUCUGCGGAUCAGUGCUACA | 0.993
UGGUAUUGUACUUGGGCUUUAACAUCAAUGUUGCUUUGAUGUUGUUGGAUAUAAAUAGGAAUUUUUACACAUUACUAUUGUGAAUGGUGAAUGUUCAUGUAUGACCUACU | 0.329
CUCUCCAGUCAAAGAAACAAAGCUAAUUGAAAUAAUGUACAUUUGGUUCAGUCUGUCAGGCAAGUACAAAUCCAUAACAAAAAAAAUUAAUAGUAUGCUCUUUGCUUUGG | 0.633
GUACACCCACCUGUAAAUACUGUAUCCUCAGUUUAGAAAAUUAGUGCAAUGUAUGAAAAUCAAGUGUUAGGAAAUUUCAUGGUUUCACCUAUAACCUUUAUUUUAGAAUU | 0.452
UUUGUAAAAAUAACUGUAGCUUAUAUUCUUUAUUUGUGCAUACCAAUGUGAAAAUCCACUCUUUUAUUAUGUUGAGAUUAUCUUCUGAUCAGGAAGUUUGAGUGCUAUGC | 0.741
UAAAAUAAAAAGCCUCCUCUUUCCAUCCCUCAAGUCAACUUUUGUGCUCCAGAAAAUUUUCUAUUCUGUAAGUCUAAGGGUAAAACUUCAAGUAUUAAGAUAAUUUGUAC | 0.507
GUCUCCCCGGCCUACUCAUCCUGAGUCACCCUAUCACCAUGGGAGGUGGAGCCUCAAACUAAAACCUUCUUUUAUGGAAAGAAGGCUGUGGCCAAAAGCCCCGUAUCAAA | 0.268

Set 2 — method: aptamer microarray, sandwich; molecule type: DNA with 2'F-ANA; sample: in vitro; tested at: 200 nM; together with: Cy3 exosite-II aptamer, 400 nM; direction: higher = stronger binding; sequence: GGTTGGTGTGGTTGG
Target: Prothrombin, mature alpha-thrombin (F2, Homo sapiens, UniProt P00734)
Notes: whole 15-mer aptamer, many near background
Modification | mean fluorescence intensity [a.u.]
2'F-ANA at 1 6 8 10 11 12 13 14 | 92.2
2'F-ANA at 2 7 8 9 11 12 13 14 15 | 177
2'F-ANA at 1 2 3 4 6 9 12 13 14 | 124
2'F-ANA at 1 2 7 11 12 13 15 | 223
2'F-ANA at 2 6 7 10 13 15 | 105
2'F-ANA at 1 2 4 6 7 8 9 10 12 13 15 | 57.2
2'F-ANA at 1 2 4 8 11 14 | 57.4
2'F-ANA at 3 4 6 7 8 9 10 12 13 14 15 | 152
2'F-ANA at 2 3 4 6 8 9 10 12 15 | 243
2'F-ANA at 1 2 3 6 7 10 13 14 15 | 53.8
2'F-ANA at 1 2 3 5 | 59.5
2'F-ANA at 9 10 11 15 | 140
2'F-ANA at 4 6 9 12 | 537
2'F-ANA at 1 4 5 9 14 15 | 42
2'F-ANA at 1 3 4 5 10 12 15 | 53.2
2'F-ANA at 3 6 13 14 15 | 527
2'F-ANA at 1 3 4 7 8 9 10 11 12 13 15 | 71.3
2'F-ANA at 1 4 6 7 8 9 11 15 | 98.2
2'F-ANA at 2 3 5 6 8 10 11 13 14 | 48.3
2'F-ANA at 2 3 6 7 8 11 12 13 15 | 761
2'F-ANA at 1 2 3 8 | 408
2'F-ANA at 1 2 3 5 6 9 11 13 | 50.7

Set 3 — method: RNA Bind-n-Seq; molecule type: RNA; sample: in vitro; tested at: 200 nM; notes: whole 134-nt RNA, ends assumed; together with: 150 mM LiCl; reference: input library; direction: higher = stronger binding; library: 7-deaza-guanosine replaces G
Target: Ras GTPase-activating protein-binding protein 1, full length (G3BP1, Homo sapiens, UniProt Q13283)
Chain of UniProt Q13283 (whole entry, looked up): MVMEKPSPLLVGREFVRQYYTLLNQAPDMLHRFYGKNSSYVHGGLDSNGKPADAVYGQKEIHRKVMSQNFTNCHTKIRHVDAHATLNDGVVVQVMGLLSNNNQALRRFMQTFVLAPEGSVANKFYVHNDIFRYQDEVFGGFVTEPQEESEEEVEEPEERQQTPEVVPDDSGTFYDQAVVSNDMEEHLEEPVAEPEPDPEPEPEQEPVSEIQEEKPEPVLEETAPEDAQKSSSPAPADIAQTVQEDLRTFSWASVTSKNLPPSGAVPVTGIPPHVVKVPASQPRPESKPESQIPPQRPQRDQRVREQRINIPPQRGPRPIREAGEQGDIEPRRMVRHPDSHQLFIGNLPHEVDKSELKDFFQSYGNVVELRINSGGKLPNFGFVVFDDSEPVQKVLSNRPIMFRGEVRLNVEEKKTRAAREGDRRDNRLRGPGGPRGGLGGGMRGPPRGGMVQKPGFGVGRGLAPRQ
Constant ends, left off below: GGGAGUUCUACAGUCCGACGAUC … UGGAAUUCUCGGGUGUCAAGG
Sequence | log2 enrichment
CCUCAAGUCCUGUGCUACACAUCGUAUGUACCGAAUCGGAAAGGAAAGGUGGAAAGUAUUAUGUUACGCCGUUCGGAUCUGCACUUCCAG | -0.413
UCCUCAAGUCCUGUGCUACACAUCGUAUGUACCGAAUCGGUGGUGGUGGGGAAAGUAUUAUGUUACGCCGUUCGGAUCUGCACUUCCAGC | 0.485
UCAAGUCCUGUGCUACACAUCGUAUGUACCGAAUCGGGGAAGGGAAGGGGAAGGAAAGUAUUAUGUUACGCCGUUCGGAUCUGCACUUCC | -0.638
CCUCAAGUCCUGUGCUACACAUCGUAUGUACCGAAUCGGGAAGGAAGGAAGGAAAGUAUUAUGUUACGCCGUUCGGAUCUGCACUUCCAG | -0.329
GUCCUGUGCUACACAUCGUAUGUACCGAAUCGGCCCCCGGGGCCCCCGGGGCCCCCGGAAAGUAUUAUGUUACGCCGUUCGGAUCUGCAC | -1.74
UAACUUUAGAGGAGGAUCUGAUGGAUAUGGCAGUGGACGUGGAUUUGGGGAUGGCUAUAAUGGGUACGGAGGAGGACCUGGAGGUGGCAA | -0.356
CCUCAAGUCCUGUGCUACACAUCGUAUGUACCGAAUCGGGUGGGGUGGGUGGGAAAGUAUUAUGUUACGCCGUUCGGAUCUGCACUUCCA | -0.0769
UUCCUUCCACGACCCCUGAAGAGCAGCGGUGGGUCUGAGCAUCCUAUCUCCAGGAAGCAGGCCAGCAGGCAAGCCAGCUGCCACCUCGUC | 0.609
UGGGAGGUGGAUUUUGUUUAUUUUUUAAGCUCAUUUCCAGGGGUGGGAAUUUUUUUUUAAUAUGUGUCAUGAAUAAAGUUGUUUUUGAAA | -0.866
GUCCUGUGCUACACAUCGUAUGUACCGAAUCGGGGCCCCGGGCCCCGGGGCCCCGGGGAAAGUAUUAUGUUACGCCGUUCGGAUCUGCAC | -0.0667
UUCUGGUCUGCUCACCAGAGGUUCUUCAAAUACUUAUGCAUAGCAUCCAAAGUUAAAAGGGUUGUGCAACUAGCUCGAGAGGAAAUCAAG | -0.512

Set 4 — method: RNA Bind-n-Seq; molecule type: RNA; sample: in vitro; tested at: not given; notes: RNA with constant flanks, ends assumed; reference: input RNA pool; direction: higher = stronger binding
Target: RING finger protein unkempt homolog, zinc fingers 1-6, GST-SBP tag (UNK, Homo sapiens, UniProt Q9C0B0, residues 30-357)
Constant ends, left off below: GGGAGUUCUACAGUCCGACGAUC … CAACAGAGGAUUGAGCAUCA
Residues (chain): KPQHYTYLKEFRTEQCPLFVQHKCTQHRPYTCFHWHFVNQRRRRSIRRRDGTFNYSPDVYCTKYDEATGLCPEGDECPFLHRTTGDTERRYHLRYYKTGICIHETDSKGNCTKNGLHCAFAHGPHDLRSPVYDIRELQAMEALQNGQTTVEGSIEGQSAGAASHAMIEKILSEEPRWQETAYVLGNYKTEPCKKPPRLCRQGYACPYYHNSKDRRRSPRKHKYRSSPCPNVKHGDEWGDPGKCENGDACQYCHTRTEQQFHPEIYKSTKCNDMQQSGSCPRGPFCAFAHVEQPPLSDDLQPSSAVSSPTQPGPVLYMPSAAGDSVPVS
Sequence | bound/input enrichment
GACCUAUAUCACAAAGGCCUCCUUAAAUUUUCACUGGAUGCCGUAUCUCUGAAGGAUACUCCCGUUAUGCUGGUUGUUGACAUGUCAAAGCCUUGGACUGCUUUGGAUUCUUUACAGAAA | 0.527 ratio
CCAUUUAAAGACCGAGUCACCUGGGCUGGGGACCUUGACAAGAAAGAUGCAUCAAUCAAUACCGAAAAUAUUCAGGCUGUUCACAAUGGCACCUAUAUCUGCGAUGUCAAAAAUCCUCCU | 0.419 ratio
UUAGAAUGUGAAUUCUAUCUGUUAGAACUAAUGGAUUGUUGCUUGAUAGUGUAUCAUCCUUACCGACCUUUGCUCCAGUAUGUGCAGGACAUGGGCCAAGAAGACAUGUUGCUUCCCCUU | 0.173 ratio
GGAAAGUAUGUGUAUGUAGUAACAGAACUUAUGAAAGGAGGUGAAUUGCUGGAUAAAAUUCUCCGACAAAAAUUUUUCUCUGAACGAGAGGCCAGUGCUGUCCUGUUCACUAUAACUAAA | 0.445 ratio
GUGACAAUUCCAGAGAGCGCACAUAUAUUCACCAGCUUUUAUGCUAAAACAAAAUCGCUAUCCGUUAAUCCAGCACUCUUUUUAAACCCUGAAGACUAUAACCAUCUAAUGGGUUAUGAC | 0.215 ratio
CUGUGUCUGCAGGAGCCUGGGGUGUUCCCACAGGAGGUGGCUGACCGGCUUCUUCAGACUACCGCAUUCCACGGUCUCCUGAAUGAUGGAACUGUGGGAAUUUUCAGAGGUAACCAGAUG | 0.12 ratio
AAAGCCCUGUGAAGGUCUACUGACCGCUCACUAUUGUCUGGUAUCUGUAAACACUUCUGUUCCGUCCUUUCAUGGUAUAAUUGAUGUUCUUUAAAACUGUCAGUGUAAAACAGGGCUUAU | 0.197 ratio
GGUGGCGGCCAGUGGCUGAACUCCAGUUGCGCUUGGUCAGAAUCUUCUCAAUUGAAUAAGACCCGAAGUAUCAGACGGCGAGAUUCCUGUCUAAAUUCCAAGACAAAGGUUAUGCCUACU | 0.0991 ratio
CAAACCAGAAAUACCUCAGAAUUUUCUACUUGUGUAUGUUUUAUUAAUUAUAUAUUUUGUCCGUUGUGUUGUCUUGUAGGAAGUAUAUUUUAAUGUAAGUUGACUUUUAUGACGAGGAAG | 3.36 ratio
UAUCUUAAUGACUUGGACCGCGUAGCUGACCCUGCCUACCUGCCUACGCAACAAGAUGUGCUCCGAGUUCGAGUCCCCACCACAGGGAUCAUCGAAUACCCCUUUGACUUACAAAGUGUC | 0.128 ratio
CAUUGACCUGUCAUGCCUCGCCUGGAGGCAGCAGCAUUGGGGAUCCCCUCCAUGGGGUUCACCGAAAUAAGUGCAAUUUUUUUACACCCCUGAAACAAUUUGAAGGGAAGCAGCAUUACU | 0.226 ratio

Some of these lines once more (set 2):
Modification | mean fluorescence intensity [a.u.]
2'F-ANA at 1 3 4 5 10 12 15 | 53.2
2'F-ANA at 3 6 13 14 15 | 527
2'F-ANA at 1 3 4 7 8 9 10 11 12 13 15 | 71.3
2'F-ANA at 1 4 6 7 8 9 11 15 | 98.2
2'F-ANA at 2 3 5 6 8 10 11 13 14 | 48.3
2'F-ANA at 2 3 6 7 8 11 12 13 15 | 761
